Measurements pooled from the literature.
Each numbered part is a random draw from the data of one study; scales do not carry over between parts. pIC50: −log10 of the molar value.
Sequence of UniProt Q14680 (whole entry, looked up): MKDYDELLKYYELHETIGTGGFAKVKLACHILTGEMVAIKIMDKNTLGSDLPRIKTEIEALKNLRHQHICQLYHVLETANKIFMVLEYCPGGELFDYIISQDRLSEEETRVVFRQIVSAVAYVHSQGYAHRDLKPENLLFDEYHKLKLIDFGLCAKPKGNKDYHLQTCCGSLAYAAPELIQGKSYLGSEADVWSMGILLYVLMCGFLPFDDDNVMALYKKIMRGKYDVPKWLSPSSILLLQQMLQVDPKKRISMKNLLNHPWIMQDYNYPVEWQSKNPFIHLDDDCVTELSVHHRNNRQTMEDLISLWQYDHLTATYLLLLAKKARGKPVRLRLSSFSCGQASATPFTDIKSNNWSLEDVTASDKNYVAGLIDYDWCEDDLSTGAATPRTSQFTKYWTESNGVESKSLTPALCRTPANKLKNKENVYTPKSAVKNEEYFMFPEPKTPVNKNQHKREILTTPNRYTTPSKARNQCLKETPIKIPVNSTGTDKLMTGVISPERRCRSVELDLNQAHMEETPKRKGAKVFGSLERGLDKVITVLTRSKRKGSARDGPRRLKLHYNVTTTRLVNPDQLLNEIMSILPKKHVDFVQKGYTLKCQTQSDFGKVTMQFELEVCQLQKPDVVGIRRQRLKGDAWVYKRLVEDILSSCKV
Sequence of UniProt Q9UK32 (whole entry, looked up): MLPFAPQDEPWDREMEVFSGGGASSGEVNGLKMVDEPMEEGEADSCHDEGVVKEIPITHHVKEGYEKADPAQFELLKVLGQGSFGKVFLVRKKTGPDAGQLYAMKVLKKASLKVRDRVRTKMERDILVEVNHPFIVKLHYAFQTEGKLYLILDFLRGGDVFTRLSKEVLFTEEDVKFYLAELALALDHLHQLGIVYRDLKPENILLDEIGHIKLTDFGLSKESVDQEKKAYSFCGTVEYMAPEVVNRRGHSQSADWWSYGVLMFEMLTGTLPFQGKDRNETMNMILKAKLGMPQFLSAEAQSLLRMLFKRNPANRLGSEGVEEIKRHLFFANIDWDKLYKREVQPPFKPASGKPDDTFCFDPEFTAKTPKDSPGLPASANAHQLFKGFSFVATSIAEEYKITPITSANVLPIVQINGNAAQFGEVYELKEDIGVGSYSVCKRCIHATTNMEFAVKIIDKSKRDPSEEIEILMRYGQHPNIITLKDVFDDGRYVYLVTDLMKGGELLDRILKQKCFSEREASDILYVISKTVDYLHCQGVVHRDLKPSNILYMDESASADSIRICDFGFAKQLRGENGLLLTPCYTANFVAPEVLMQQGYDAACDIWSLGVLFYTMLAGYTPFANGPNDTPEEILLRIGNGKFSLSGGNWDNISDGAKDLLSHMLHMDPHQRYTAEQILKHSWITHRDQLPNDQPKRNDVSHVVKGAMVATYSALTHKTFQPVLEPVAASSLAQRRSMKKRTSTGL
Sequence of UniProt P29322 (whole entry, looked up): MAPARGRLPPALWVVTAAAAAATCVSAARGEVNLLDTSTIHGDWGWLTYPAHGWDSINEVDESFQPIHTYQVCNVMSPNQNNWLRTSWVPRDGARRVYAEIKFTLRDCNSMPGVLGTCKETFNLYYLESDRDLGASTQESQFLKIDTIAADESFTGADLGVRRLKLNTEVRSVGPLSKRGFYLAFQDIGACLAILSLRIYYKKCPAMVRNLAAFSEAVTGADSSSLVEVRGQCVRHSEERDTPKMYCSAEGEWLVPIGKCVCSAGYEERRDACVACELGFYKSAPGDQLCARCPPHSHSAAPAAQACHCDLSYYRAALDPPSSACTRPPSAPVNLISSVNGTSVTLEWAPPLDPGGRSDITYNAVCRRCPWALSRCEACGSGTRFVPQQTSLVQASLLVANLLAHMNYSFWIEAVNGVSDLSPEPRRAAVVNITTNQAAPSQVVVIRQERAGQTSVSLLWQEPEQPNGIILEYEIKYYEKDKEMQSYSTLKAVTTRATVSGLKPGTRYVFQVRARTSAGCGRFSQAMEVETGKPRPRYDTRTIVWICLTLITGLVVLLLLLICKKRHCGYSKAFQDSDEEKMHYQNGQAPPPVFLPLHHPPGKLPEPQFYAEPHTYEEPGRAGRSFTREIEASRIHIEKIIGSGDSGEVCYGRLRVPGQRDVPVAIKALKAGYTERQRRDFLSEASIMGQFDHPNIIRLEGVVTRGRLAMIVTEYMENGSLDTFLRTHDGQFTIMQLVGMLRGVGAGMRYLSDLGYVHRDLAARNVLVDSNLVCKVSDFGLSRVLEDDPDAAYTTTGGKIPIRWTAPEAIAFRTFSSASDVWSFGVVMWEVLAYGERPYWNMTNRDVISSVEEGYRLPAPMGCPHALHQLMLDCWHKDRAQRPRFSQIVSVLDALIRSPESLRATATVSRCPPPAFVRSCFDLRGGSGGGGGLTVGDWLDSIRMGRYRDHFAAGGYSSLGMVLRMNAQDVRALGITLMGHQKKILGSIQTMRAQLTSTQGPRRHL
Sequence of UniProt Q8N752 (whole entry, looked up): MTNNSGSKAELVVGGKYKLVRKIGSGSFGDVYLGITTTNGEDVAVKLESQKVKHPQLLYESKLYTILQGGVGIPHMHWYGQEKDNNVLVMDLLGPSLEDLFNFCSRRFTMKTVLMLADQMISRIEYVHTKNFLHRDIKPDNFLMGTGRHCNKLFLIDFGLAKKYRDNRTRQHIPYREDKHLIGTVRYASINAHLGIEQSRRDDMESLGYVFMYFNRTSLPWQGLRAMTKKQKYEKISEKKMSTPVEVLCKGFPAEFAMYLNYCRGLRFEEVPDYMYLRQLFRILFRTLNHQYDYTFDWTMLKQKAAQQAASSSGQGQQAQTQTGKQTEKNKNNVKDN
Sequence of UniProt Q99759 (whole entry, looked up): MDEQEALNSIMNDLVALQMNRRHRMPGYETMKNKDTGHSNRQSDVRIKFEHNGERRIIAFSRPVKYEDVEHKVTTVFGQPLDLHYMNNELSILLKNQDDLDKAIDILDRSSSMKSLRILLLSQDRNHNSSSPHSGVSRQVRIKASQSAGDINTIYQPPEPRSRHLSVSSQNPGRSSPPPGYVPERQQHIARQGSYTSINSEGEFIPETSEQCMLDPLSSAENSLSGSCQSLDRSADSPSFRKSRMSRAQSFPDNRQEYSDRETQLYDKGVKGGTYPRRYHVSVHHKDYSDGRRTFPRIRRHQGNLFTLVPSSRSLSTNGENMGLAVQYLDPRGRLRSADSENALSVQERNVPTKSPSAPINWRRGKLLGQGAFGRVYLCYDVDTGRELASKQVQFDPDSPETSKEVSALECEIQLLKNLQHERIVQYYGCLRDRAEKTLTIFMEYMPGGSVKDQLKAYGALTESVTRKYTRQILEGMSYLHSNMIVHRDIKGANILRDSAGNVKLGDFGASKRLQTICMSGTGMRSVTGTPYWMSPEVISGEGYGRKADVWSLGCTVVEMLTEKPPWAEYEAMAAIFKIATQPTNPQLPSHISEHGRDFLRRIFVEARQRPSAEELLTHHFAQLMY

Block 1 — species: mouse; medium: microsomes or S9; tested at: 2 µM; time: 0.5 h
With `COc1cccc(CN(C)c2oc(C(C)(C)C)nc2C#N)c1` the remaining compound was 0.207%.
With `O=C1C=C(N(Cc2ccc(Cl)nc2)Cc2cnc(Cl)s2)CO1` the remaining compound was 56.6%.
The remaining compound of `CCOC(=O)c1cnc2nc(C3CCC3)nn2c1C` is reported as 0.268%.
For `c1ccc(-c2nc3c(-c4ccccc4)ccc(-c4ccccc4)n3n2)cc1`, the remaining compound was 82.8%.

Block 2 — Structure (SMILES): C=CCc1ccc(O)c(-c2ccc(O)c(CC=C)c2)c1
ANO1 del476-501/F628A: Anoctamin-1 (ANO1, Homo sapiens, UniProt Q5XXA6, del476-501/F628A)
Sequence of UniProt Q5XXA6 (whole entry, unmodified, looked up): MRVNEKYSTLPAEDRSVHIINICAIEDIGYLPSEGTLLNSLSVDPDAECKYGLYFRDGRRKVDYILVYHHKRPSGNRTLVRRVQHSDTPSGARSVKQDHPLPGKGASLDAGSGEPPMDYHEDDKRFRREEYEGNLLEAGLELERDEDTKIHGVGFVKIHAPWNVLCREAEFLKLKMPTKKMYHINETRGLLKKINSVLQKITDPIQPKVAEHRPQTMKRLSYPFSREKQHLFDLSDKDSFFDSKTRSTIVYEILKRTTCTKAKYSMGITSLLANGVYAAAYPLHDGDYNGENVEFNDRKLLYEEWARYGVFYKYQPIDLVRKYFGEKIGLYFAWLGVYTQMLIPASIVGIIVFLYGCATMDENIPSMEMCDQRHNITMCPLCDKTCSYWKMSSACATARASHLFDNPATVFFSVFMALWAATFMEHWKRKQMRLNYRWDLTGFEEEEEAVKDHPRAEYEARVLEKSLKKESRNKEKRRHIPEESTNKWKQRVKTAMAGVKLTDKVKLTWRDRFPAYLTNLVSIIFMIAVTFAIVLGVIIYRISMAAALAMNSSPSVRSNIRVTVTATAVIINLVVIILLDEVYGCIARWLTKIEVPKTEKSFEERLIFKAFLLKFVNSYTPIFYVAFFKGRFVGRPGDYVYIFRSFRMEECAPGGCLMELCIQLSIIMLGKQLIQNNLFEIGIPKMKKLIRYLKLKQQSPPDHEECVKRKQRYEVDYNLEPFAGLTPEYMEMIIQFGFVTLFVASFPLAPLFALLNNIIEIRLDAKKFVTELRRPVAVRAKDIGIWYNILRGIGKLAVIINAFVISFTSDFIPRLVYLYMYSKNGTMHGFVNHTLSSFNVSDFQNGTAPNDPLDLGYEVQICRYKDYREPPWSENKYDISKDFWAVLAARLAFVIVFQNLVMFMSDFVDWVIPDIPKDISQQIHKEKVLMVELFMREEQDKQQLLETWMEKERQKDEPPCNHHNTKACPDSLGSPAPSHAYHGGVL
For ANO1 del476-501/F628A; chloride current, whole-cell voltage clamp; 100 µM, I-V at -60 mV, added: 4 µM Ca2+: normalized current read -0.151.
For Anoctamin-1 (ANO1, Homo sapiens, UniProt Q5XXA6, del476-501/E649A); ion current, inside-out patch clamp; 10 µM, E623A mutant at 20 mV: normalized current read 0.148.
For ANO1 del476-501/F628A; chloride current, whole-cell voltage clamp; 30 µM, concentration-response at -40 mV, added: 4 µM Ca2+: normalized current read -0.189.
For Anoctamin-1 (ANO1, Homo sapiens, UniProt Q5XXA6, del476-501); chloride current, whole-cell voltage clamp; 1 µM, wild type, concentration-response at -40 mV, added: 4 µM Ca2+: normalized current read -0.325.

Block 3 — mode: antagonist
Target: Beta-1 adrenergic receptor (ADRB1, Homo sapiens, UniProt P08588)
Sequence of UniProt P08588 (whole entry, looked up): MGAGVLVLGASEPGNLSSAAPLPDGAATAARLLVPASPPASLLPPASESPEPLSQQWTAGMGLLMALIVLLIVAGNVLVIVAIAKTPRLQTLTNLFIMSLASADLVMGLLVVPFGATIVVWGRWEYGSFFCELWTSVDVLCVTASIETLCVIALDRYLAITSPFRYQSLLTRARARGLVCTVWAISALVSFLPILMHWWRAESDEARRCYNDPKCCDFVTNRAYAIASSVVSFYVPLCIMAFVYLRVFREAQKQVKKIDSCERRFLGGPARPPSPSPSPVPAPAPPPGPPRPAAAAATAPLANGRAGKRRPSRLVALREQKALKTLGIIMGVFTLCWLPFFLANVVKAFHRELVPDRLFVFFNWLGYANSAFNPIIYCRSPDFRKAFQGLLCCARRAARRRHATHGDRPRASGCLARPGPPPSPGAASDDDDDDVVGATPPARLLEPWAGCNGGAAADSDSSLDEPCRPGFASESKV
The pIC50 of `CN(C)c1cc(=O)c2ccnc(-c3ccc(O)c(F)c3)c2o1` is reported as ≤ 4.00.
For `Cn1ccnc1C(O)c1cc2n(n1)CCN(c1ncnc3[nH]cnc13)C2` (centres unmarked), the pIC50 was ≤ 4.00.
The pIC50 of `COc1ccccc1C1CNC(=O)c2nc(CCN3CCC(C)CC3)[nH]c2C1` (centres unmarked) is reported as ≤ 4.00.
`Cn1cc(-c2cnc(Nc3ccc(N4CCOCC4)cc3)c3c2CCO3)cn1` has a pIC50 of ≤ 4.00.
`CN(c1ccccc1)c1cc(=O)c2ccnc(NC3CCOCC3)c2o1` has a pIC50 of ≤ 4.00.

Block 4 — cell line: mouse MPNST tumor cells; technique: high-content immunofluorescence imaging; refers to: nuclear SOX9; tested at: 10 µM; time: 12 h; setting: mean of 2 replicates; reference: DMSO control; reading: higher = more nuclear SOX9
Under “nuclear SOX9 intensity”, `CCn1c(=O)c(-c2ccc(-c3cncs3)cc2Cl)cc2cnc(Nc3ccc(N4CCN(C)CC4)cc3)nc21` is recorded as 91.1 % of DMSO.
For `CN[C@@H]1[C@@H](O)[C@@H](O[C@@H]2[C@@H](O)[C@H](O[C@H]3OC(CN)=CC[C@H]3N)[C@@H](N)C[C@H]2N)OC[C@]1(C)O`, “nuclear SOX9 intensity” read 104 % of DMSO.
Under “nuclear SOX9 intensity”, `COc1ccc(-n2[nH]c3c4c(ncc3c2=O)CCCCC4)cc1` is recorded as 93.4 % of DMSO.
Under “nuclear SOX9 intensity”, `NCc1ccc(S(N)(=O)=O)cc1` is recorded as 79.4 % of DMSO.

Block 5 — effect on: cell-free assay; technique: competition with immobilised ligand; tested at: 1 µM
Structure (SMILES): O=C(Nc1ccc(Oc2ccc(F)cc2)cc1)N1CCc2ncccc2[C@H]1c1ccc(F)cc1
The remaining binding was 97% (Myosin light chain kinase family member 4 (MYLK4, Homo sapiens, UniProt Q86YV6)).
Ephrin type-A receptor 8 (EPHA8, Homo sapiens, UniProt P29322) — remaining binding: 92%.
It gave 61% for remaining binding (Serine/threonine-protein kinase STK11 (STK11, Homo sapiens, UniProt Q15831)).
For Mitogen-activated protein kinase kinase kinase 3 (MAP3K3, Homo sapiens, UniProt Q99759): remaining binding read 87%.
The remaining binding was 75% (Serine/threonine-protein kinase 32C (STK32C, Homo sapiens, UniProt Q86UX6)).
It gave 97% for remaining binding (Hepatocyte growth factor receptor (MET, Homo sapiens, UniProt P08581, M1250T)).
Serine/threonine-protein kinase Nek5 (NEK5, Homo sapiens, UniProt Q6P3R8) — remaining binding: 96%.
It gave 94% for remaining binding (Serine/threonine-protein kinase WNK3 (WNK3, Homo sapiens, UniProt Q9BYP7)).
Maternal embryonic leucine zipper kinase (MELK, Homo sapiens, UniProt Q14680) — remaining binding: 78%.
For Serine/threonine-protein kinase SIK2 (SIK2, Homo sapiens, UniProt Q9H0K1): remaining binding read 100%.
It gave 85% for remaining binding (Serine/threonine-protein kinase/endoribonuclease IRE1 (ERN1, Homo sapiens, UniProt O75460)).
The remaining binding was 75% (Phosphatidylinositol 4,5-bisphosphate 3-kinase catalytic subunit alpha isoform (PIK3CA, Homo sapiens, UniProt P42336, Q546K)).
It gave 95% for remaining binding (Ribosomal protein S6 kinase alpha-6, C-terminal kinase domain (RPS6KA6, Homo sapiens, UniProt Q9UK32)).
It gave 96% for remaining binding (Epidermal growth factor receptor (EGFR, Homo sapiens, UniProt P00533, L858R)).
It gave 100% for remaining binding (Mitogen-activated protein kinase kinase kinase 15 (MAP3K15, Homo sapiens, UniProt Q6ZN16)).
It gave 74% for remaining binding (Epidermal growth factor receptor (EGFR, Homo sapiens, UniProt P00533, del747-750/T751S)).
It gave 92% for remaining binding (Casein kinase I isoform alpha-like (CSNK1A1L, Homo sapiens, UniProt Q8N752)).

Single results of other studies
The remaining activity of `O=C(Nc1cnn(-c2csc(C(=O)NC3COC3)c2)c1)Nc1c(F)cccc1Cl` is reported as 81.2% (Serine/threonine-protein kinase 24 (STK24, Homo sapiens, UniProt Q9Y6E0); enzyme activity; 5 µM; reference: untreated control).
